Experimental data collected from several papers.
Compare with care: the assays were run in different laboratories. Values joined by “and” are separate records of one study, mostly repeats; a detail may differ. Numbers after ± are the reported error.

The RVSP of `Cc1ccc(NC(=O)c2ccc(CN3CCN(C)CC3)cc2)cc1Nc1nccc(-c2cccnc2)n1` is reported as 61.1 ± 7.4 mmHg (rat, SU5416/hypoxia PAH model; oral, 15.0 mg/kg once daily, day 49).
For `Cc1c(OCC(F)(F)F)ccnc1C[S@@+]([O-])c1nc2ccccc2[nH]1`, “time with intragastric pH above 4” read 60% (healthy human; oral, single dose, 60 mg, modified release, 12 to 24 h, crossover vs esomeprazole).
The PDQ-39 score of `Cc1ccc(NC(=O)c2ccc(CN3CCN(C)CC3)cc2)cc1Nc1nccc(-c2cncc(-c3oncc3C)c2)n1` is reported as 19.9 ± 8.2 (mild-to-moderate Parkinson's disease patients; oral, 50 mg once daily, day 7, on anti-Parkinson medication; direction not given).
For `cilengitide`, “active TGF-β1 level” read 1.42 ± 0.03 ng/mg protein (Sprague-Dawley rats, TNBS colitis, colonic smooth muscle cells; ip, 18 mg/kg/day, 42 d).
Under “fasting blood glucose”, `C=CCc1ccc(O)c(-c2ccc(O)c(CC=C)c2)c1` is recorded as “decreased” (high-fat diet/STZ type 2 diabetic mice; oral, 200 mg/kg once daily, 8 weeks; reference: diabetic control).
`CN(C)C(=O)N[C@H]1CC[C@H](CCN2CCN(c3cccc(Cl)c3Cl)CC2)CC1` — result for “open field activity”: 112 ± 22.9 squares crossed (Sprague-Dawley rat, ouabain-induced mania; ip, 0.06 mg/kg daily, 7 days, squares in 30 min, added: ouabain icv single).
For `Cc1cn(-c2cc(NC(=O)c3ccc(C)c(Nc4nccc(-c5cccnc5)n4)c3)cc(C(F)(F)F)c2)cn1`, “UPDRS III score” read 27 and 64 and 38 and 54 (human; 150 mg, week 36 follow-up; direction not given).
`SIIVFEKL` — result for “IFN-γ+ TNF-α+ cells”: 0.44% (flow cytometry, measured: CD44hi CD8+ T cells; peptide, OT-I CD8+ T cells, mouse; dose not given, primed 5 days, TGF-β1 from day 2 onward, added: 20 ng/mL TGF-β1).
For `YEGKK`, “labelled endothelial cells” read 15.2% (neovascularization, [3H]thymidine labelling; peptide, BALB/c mouse female, sponge implant granulation tissue; 100 µM, day 14).
`CC(C)C[C@H](NC(=O)[C@H](CO)NC(=O)[C@H](CCCNC(=N)N)NC(=O)[C@H](CC(=O)O)NC(=O)[C@H](CCC(=O)O)NC(=O)[C@H](C)NC(=O)[C@@H]1CCCN1C(=O)[C@H](C)NC(=O)[C@H](CCC(=O)O)NC(=O)[C@@H]1CCCN1C(=O)[C@@H]1CCCN1)C(N)=O`: “TH+ neuron increase” 44% (measured: tyrosine hydroxylase; rat F344, unilateral 6-OHDA lesion, caudal SNpc; intranasal, dose not given; reference: vehicle).
For `CC(C)[C@H](N)C(=O)N[C@@H](Cc1c[nH]cn1)C(=O)N1CCC[C@H]1C(=O)N[C@@H](CCCCN)C(=O)N[C@@H](CCC(N)=O)C(=O)N[C@@H](Cc1c[nH]cn1)C(=O)N[C@@H](CCCNC(=N)N)C(=O)NCC(=O)NCC(=O)N[C@@H](CO)C(=O)N[C@@H](Cc1ccc(O)cc1)C(=O)NCCCC[C@H](NC(=O)[C@H](Cc1ccc(O)cc1)NC(=O)[C@H](CO)NC(=O)CNC(=O)CNC(=O)[C@H](CCCNC(=N)N)NC(=O)[C@H](Cc1c[nH]cn1)NC(=O)[C@H](CCC(N)=O)NC(=O)[C@H](CCCCN)NC(=O)[C@@H]1CCCN1C(=O)[C@H](Cc1c[nH]cn1)NC(=O)[C@@H](N)C(C)C)C(=O)NCCCC[C@H](NC(=O)[C@H](CCCCNC(=O)[C@H](Cc1ccc(O)cc1)NC(=O)[C@H](CO)NC(=O)CNC(=O)CNC(=O)[C@H](CCCNC(=N)N)NC(=O)[C@H](Cc1c[nH]cn1)NC(=O)[C@H](CCC(N)=O)NC(=O)[C@H](CCCCN)NC(=O)[C@@H]1CCCN1C(=O)[C@H](Cc1c[nH]cn1)NC(=O)[C@@H](N)C(C)C)NC(=O)[C@H](Cc1ccc(O)cc1)NC(=O)[C@H](CO)NC(=O)CNC(=O)CNC(=O)[C@H](CCCNC(=N)N)NC(=O)[C@H](Cc1c[nH]cn1)NC(=O)[C@H](CCC(N)=O)NC(=O)[C@H](CCCCN)NC(=O)[C@@H]1CCCN1C(=O)[C@H](Cc1c[nH]cn1)NC(=O)[C@@H](N)C(C)C)C(=O)N[C@@H](CCCCNC(=O)CON=Cc1ccc(F)cc1)C(=O)O` [fluorine-18 labelled], “infarct to background ratio” read 1.4 (mouse myocardial infarction, infarcted myocardium; 5 days after MI, added: VCAM-1 antibody pre-injection).
Under “change from baseline”, `C[C@H]1C[C@H]2CSC(N)=N[C@@]2(c2nc(NC(=O)c3ccc(OC(F)F)cn3)cs2)CO1` is recorded as -79.5% (measured: CSF Aβ1–38; healthy adults; 125 mg once daily, 14 days, day 15; reference: placebo-adjusted baseline).
`CCn1cnc(C[C@H](NC(=O)[C@@H]2CCC(=O)C2)C(=O)N2CCC[C@H]2C(N)=O)c1`: “decrease in sleeping time” 69% and 68.8% (Swiss albino mice; intravenous, 10 µmol/kg, added: pentobarbital; reference: control).
With `C=CC(=O)N1C[C@@H]2C[C@H]1CN2S(=O)(=O)c1ccc(N2CC(CN3CCC([C@@](CN4CCC4)(c4cccc(F)c4)[C@H]4CCC[C@@H]4NC(=O)OC)CC3)(OC)C2)cc1` the mRNA level was under 2% (RT-qPCR, measured: MEIS1; NCG mouse, MV4-11 luciferase disseminated xenograft, bone marrow human CD45+ cells; oral, 150 mg/kg once daily for 4 days, 48 h after last dose; reference: vehicle).
Under “change in CDAI”, `CC[C@H](C)[C@H](NC(=O)[C@H](CCC(N)=O)NC(=O)[C@H](Cc1c[nH]cn1)NC(=O)[C@H](C)NC(=O)[C@H](CC(C)C)NC(=O)[C@H](CCCCN)NC(=O)[C@H](CCC(N)=O)NC(=O)[C@@H](NC(=O)[C@@H](NC(=O)[C@@H]1CSSC[C@H](NC(=O)CNC(=O)[C@H](Cc2ccccc2)NC(=O)[C@H](CO)NC(=O)[C@H](CCCNC(=N)N)NC(=O)[C@H](CC(C)C)NC(=O)CNC(=O)[C@H](CCC(N)=O)NC(=O)[C@H](Cc2ccccc2)NC(=O)[C@H](CC(N)=O)NC(=O)[C@H](CC(N)=O)NC(=O)[C@H](CCSC)NC(=O)[C@H](CO)NC(=O)[C@H](CCC(N)=O)NC(=O)[C@H](CCCNC(=N)N)NC(=O)[C@@H](N)Cc2ccc(O)cc2)C(=O)N[C@@H](CCCNC(=N)N)C(=O)N[C@@H](Cc2ccccc2)C(=O)NCC(=O)N[C@@H]([C@@H](C)O)C(=O)N1)[C@@H](C)O)C(C)C)C(=O)N[C@@H](Cc1ccc(O)cc1)C(=O)N[C@@H](CCC(N)=O)C(=O)N[C@@H](Cc1ccccc1)C(=O)N[C@H](C(=O)N[C@@H](CC(=O)O)C(=O)N[C@@H](CCCCN)C(=O)N[C@@H](CC(=O)O)C(=O)N[C@@H](CCCCN)C(=O)N[C@@H](CC(=O)O)C(=O)N[C@@H](CC(N)=O)C(=O)N[C@H](C(=O)N[C@@H](C)C(=O)N1CCC[C@H]1C(=O)N[C@@H](CCCNC(=N)N)C(=O)N[C@@H](CO)C(=O)N[C@@H](CCCCN)C(=O)N[C@H](C(=O)N[C@@H](CO)C(=O)N1CCC[C@H]1C(=O)N[C@@H](CCC(N)=O)C(=O)NCC(=O)N[C@@H](Cc1ccc(O)cc1)C(N)=O)[C@@H](C)CC)C(C)C)[C@@H](C)O` is recorded as -45 ± 42 (patients, biologic-resistant Crohn's disease; intravenous infusion, 10 ng/kg/min, 16 weeks, unit not given, added: biologic; reference: baseline).
`O=C(NC[C@H]1CN(c2ccc(N3CCOCC3=O)cc2)C(=O)O1)c1ccc(Cl)s1` — result for “prothrombin time Emax increase”: about 20% (human, mild renal impairment, plasma; oral, 10 mg, added: erythromycin at steady state; reference: normal renal function, compound alone).
Under “time to nadir”, `COc1cnc(C(=O)Nc2ccc(F)c([C@]34CN(c5ncc(F)cn5)C[C@H]3CSC(N)=N4)c2)cn1` is recorded as about 28 h (measured: CSF Aβ1–40 and Aβ1–42; healthy humans; 26 mg single dose).
The DPPH scavenging of `O=C(/C=C/c1ccc(O)c(O)c1O)c1ccc(O)c(O)c1O` is reported as over 80% (ethanol; 20 µM, 30 min).
For `Cc1ccc(/C(CSc2nnc(-c3nnn(-c4ccc(S(N)(=O)=O)cc4)c3C)n2-c2ccccc2)=N\O)cc1`, the NO released was 1.66% (Griess; phosphate buffer-methanol; 100 µM, 1 h, pH 7.4, 37 °C, added: N-acetylcysteine 0.5 mM; reference: theoretical maximum release).
For `Polymyxin B`, the IL-8 release was 40.6 ± 10.5% (human whole blood; 500 ng/mL, 4 h, 37 °C, added: E. coli LPS 0.5 ng/mL; reference: LPS without compound).
Under “tumour size decrease”, `CCOc1cc(/C=C2\CN(C(C)=O)CC3=C2OC(N)=C(C#N)C3c2ccc(O)c(OCC)c2)ccc1O` (centres unmarked) is recorded as 79% (rat, DMBA-induced mammary tumour, mammary tumour; 2 mg/kg per week, day 42; reference: before treatment).
`RKVVTDFFKNIPQRI` gave an IL-4 secretion of 0.14 ng/mL (sandwich ELISA; peptide, peptide-specific T cell line, mouse, culture supernatant; dose not given, 48 h).
The cytokine level of `COc1ccc2c(c1)c(CC(=O)O)c(C)n2C(=O)c1ccc(Cl)cc1` is reported as 155 ± 94.4 pg/mL (multiplex bead immunoassay, measured: IL-5; CD-1 mice, serum; ip, 20 mg/kg, three-injection regimen, added: LPS 3 mg/kg).
`PACAP` gave a mRNA level of 168 ± 13.2% (qRT-PCR, GAPDH-normalised, measured: PAC1-receptor; APP V717I transgenic mouse, 6 months old, brain; intranasal, dose not given, 3 months; reference: vehicle-treated mice).
`COc1ccc(-n2c(SC/C(=N/O)c3ccc(Cl)cc3)nnc2-c2nnn(-c3ccc(S(N)(=O)=O)cc3)c2C)cc1` has an NO released of 0.9% (Griess; phosphate buffer-methanol; 100 µM, 1 h, pH 7.4, 37 °C, added: N-acetylcysteine 0.5 mM; reference: theoretical maximum release).
`CCCOc1ccc(S(=O)(=O)NCCC2CCCN2C)cc1-c1nc2c(CCC)nn(C)c2c(=O)[nH]1` (centres unmarked) — result for “change in myocardial performance index”: -0.12 ± 0.09 (blood pool echocardiography; human adolescents after Fontan palliation; oral, 87.5 mg twice daily, day 5; reference: baseline, negative is improvement).
For `CCC1=C(C)CN(C(=O)NCCc2ccc(S(=O)(=O)NC(=O)N[C@H]3CC[C@H](C)CC3)cc2)C1=O`, “maximum serum glucose” read 134 mg/dL (oral glucose tolerance test; healthy male humans, serum; oral, dose not given, steady state, added: 75 g glucose).
For `C#Cc1cccc(Nc2ncnc3cc(OCCOC)c(OCCOC)cc23)c1`, “tumour multiplicity reduction” read 90% (rat MNU mammary carcinogenesis; oral, 6 mg/kg daily; reference: vehicle).
With `COc1cc(F)c([C@@H]2CNC(=O)[C@H]2NC(=O)Nc2ccccc2)c(F)c1` the EC50 was about 2 pM (zymosan phagocytosis, stimulator; peritoneal macrophages FPR1 knockout, mouse; BioGel-elicited).

Some of these lines once more:
The DPPH scavenging of `O=C(/C=C/c1ccc(O)c(O)c1O)c1ccc(O)c(O)c1O` is reported as over 80% (ethanol; 20 µM, 30 min).
Under “fasting blood glucose”, `C=CCc1ccc(O)c(-c2ccc(O)c(CC=C)c2)c1` is recorded as “decreased” (high-fat diet/STZ type 2 diabetic mice; oral, 200 mg/kg once daily, 8 weeks; reference: diabetic control).
`PACAP` gave a mRNA level of 168 ± 13.2% (qRT-PCR, GAPDH-normalised, measured: PAC1-receptor; APP V717I transgenic mouse, 6 months old, brain; intranasal, dose not given, 3 months; reference: vehicle-treated mice).
For `Cc1c(OCC(F)(F)F)ccnc1C[S@@+]([O-])c1nc2ccccc2[nH]1`, “time with intragastric pH above 4” read 60% (healthy human; oral, single dose, 60 mg, modified release, 12 to 24 h, crossover vs esomeprazole).
